Published values of several laboratories.
Compare with care: the assays were run in different laboratories. Numbers after ± are the reported error.

Structure (SMILES)	test	system	conditions	fraction unbound
N=C(CC(O)c1cc2c(F)cc(F)cc2c2cc(C(F)(F)F)ccc12)Nc1ccc(F)c(F)c1 (centres unmarked)	equilibrium dialysis	human plasma	100 ng/mL, 24 h, 0.9% saline dilution	0.002
O=C1C=C(O)CC1Cc1ccccc1 (centres unmarked)		human plasma		0.08
CN1C(=O)Cc2ccc(F)c(CCNCC[C@H]3CN(c4ccc5c(n4)NC(=O)CO5)C(=O)O3)c21	equilibrium dialysis	human plasma, 10%	10 µM, 18 h	0.08
CC(C)(C)NC(=O)[C@@H]1C[C@@H]2CCCC[C@@H]2CN1C[C@@H](O)[C@H](Cc1ccccc1)NC(=O)[C@H](CC(N)=O)NC(=O)c1ccc2ccccc2n1		human, maternal placental perfusate	pH 7.4	0.06
CN1C(=O)Cc2ccc(F)c(CNCCCC3CN(c4ccc5c(n4)NC(=O)CO5)C(=O)O3)c21 (centres unmarked)	equilibrium dialysis	human plasma, 10%	10 µM, 18 h	0.09
CCCC[C@@H]1NC(=O)[C@H](Cc2ccc(O)cc2)NC(=O)[C@@H]2CCCN2C(=O)[C@H](CC(=O)O)NC(=O)[C@H](C)NC(=O)[C@H](Cc2ccccc2)NC(=O)[C@@H]2CSCCC(=O)N3CN(CN(C3)C(=O)CCSC[C@@H](C(N)=O)NC1=O)C(=O)CCSCCC(=O)N[C@@H](CC(C)(C)C)C(=O)N1CCC[C@H]1C(=O)N[C@@H](CCC(=O)O)C(=O)N[C@H](CCCCNC(=O)CCc1cn(CCOCCOCCOCCN(CCOCCOCCOCCC(=O)N[C@H]3CSCCC(=O)N4CN5CN(C4)C(=O)CCSC[C@H](NC(=O)[C@@H](CC(=O)O)NC(=O)[C@H](Cc4cccc6ccccc46)NC(=O)[C@@H]4CCCN4C3=O)C(=O)N[C@@H](CCSC)C(=O)N[C@@H](CCCCNC(=N)N)C(=O)N[C@@H](CC(=O)O)C(=O)N[C@@H](Cc3c[nH]c4ccccc34)C(=O)N[C@@H](CO)C(=O)N[C@@H]([C@@H](C)O)C(=O)N3CCC[C@H]3C(=O)N3C[C@H](O)C[C@H]3C(=O)N[C@@H](Cc3c[nH]c4ccccc34)C(=O)N[C@H](C(N)=O)CSCCC5=O)CCOCCOCCOCCn3cc(CCC(=O)NCCCC[C@H]4NC(=O)[C@H](CCC(=O)O)NC(=O)[C@@H]5CCCN5C(=O)[C@H](CC(C)(C)C)NC(=O)CCSCCC(=O)N5CN6CN(C5)C(=O)CCSC[C@H](NC(=O)[C@H](Cc5ccc(O)cc5)NC(=O)[C@@H]5CCCN5C4=O)C(=O)N[C@@H](Cc4ccccc4)C(=O)N[C@@H](C)C(=O)N[C@@H](CC(=O)O)C(=O)N4CCC[C@H]4C(=O)N[C@@H](Cc4ccc(O)cc4)C(=O)N[C@@H](CCCC)C(=O)N[C@H](C(N)=O)CSCCC6=O)nn3)nn1)C(=O)N1CCC[C@H]1C(=O)N[C@@H](Cc1ccc(O)cc1)C(=O)N2	ultracentrifugation	rat plasma		0.088
CN(C)S(=O)(=O)NC(=O)CCc1ccccc1		human plasma		0.08
CN[C@@H]1C[C@H]2O[C@@](C)([C@@H]1OC)n1c3ccccc3c3c4c(c5c6ccccc6n2c5c31)C(=O)N[C@H]4O	equilibrium dialysis	human plasma		0.003
O=c1c(O)c(NCc2ccccc2)c1=O		human plasma		0.06
Cc1sc2c(c1C)C(c1ccc(Cl)cc1)=N[C@@H](CC(=O)Nc1ccc(O)cc1)c1nnc(C)n1-2	equilibrium dialysis	mouse plasma	10 µM, 4 h, pH 7.4	0.0199 ± 0.0034
CNC(C)Cc1ccc2c(c1)OCO2 (centres unmarked)	rapid equilibrium dialysis	human plasma	1000 ng/mL	0.88
Cc1onc(-c2c(F)cccc2Cl)c1C(=O)N[C@@H]1C(=O)N2[C@@H]1SC(C)(C)[C@@H]2C(=O)O		spiked plasma of healthy donors		0.04 to 0.05
O=c1c(O)c(Cc2ccccc2)c1=O		human plasma		0.08
C=CC(=O)N[C@H]1C=C(C)c2c(-c3cnc4ccccc4c3)c3c(N)ncnc3n2C1		rat brain slices		0.119 ± 0.03
O=C1NC(=O)C(Cc2ccccc2)S1 (centres unmarked)		human plasma		0.03
NC(=O)N1c2ccccc2C=Cc2ccccc21	equilibrium dialysis	human plasma	5 µM, 6 h	0.31
COc1ccc2c(c1)[C@]13CCCC[C@@H]1[C@H](C2)N(C)CC3	rapid equilibrium dialysis	human plasma	2 µM, 6 h, pH 7.4	0.455
O=c1[nH]c(CCc2ccccc2)ns1		human plasma		0.01
O=c1ccc2ncc(=O)n3c2n1C[C@H]3CN1CCC(NCc2cc3c(cn2)OCCC3)CC1		rat plasma		0.7
Cn1c(=O)ccc2ccc(F)c(CCNC[C@H]3CN(c4ccc5c(n4)NC(=O)CO5)C(=O)O3)c21	equilibrium dialysis	human plasma, 10%	10 µM, 18 h	< 0.01

Some of these lines once more:
Structure (SMILES)	test	system	conditions	fraction unbound
O=c1c(O)c(Cc2ccccc2)c1=O		human plasma		0.08
C=CC(=O)N[C@H]1C=C(C)c2c(-c3cnc4ccccc4c3)c3c(N)ncnc3n2C1		rat brain slices		0.119 ± 0.03
